Measurements pooled from the literature.

| Compound | organism | test | test system | setting | MIC |
| --- | --- | --- | --- | --- | --- |
| C[N+]1=C2C(c3ccccc3)=[N+]([O-])c3ccccc3N2CCC1 | Peptostreptococcus anaerobius |  |  |  | 16 mg/L |
| C/C=C1\NC(=O)[C@H](Cc2ccccc2)NC(=O)[C@H](C(C)C)NC(=O)[C@H](Cc2ccccc2)NC(=O)[C@H](CCC(N)=O)NC(=O)[C@H](Cc2c[nH]c3ccccc23)NC(=O)[C@H]2CSC[C@@H](C(=O)N[C@@H](CO)C(=O)O)NC(=O)[C@H](CSC[C@H]3NC(=O)[C@H]([C@@H](C)CC)NC(=O)[C@H](NC(=O)[C@H](Cc4c[nH]cn4)NC(=O)[C@@H](NC(=O)[C@@H](NC(=O)CNC(=O)[C@H](CO)NC(=O)CNC(=O)CNC(=O)[C@@H](N)CCCCN)C(C)C)[C@@H](C)CC)[C@H](C)SC[C@H](NC(=O)[C@H](CCC(=O)O)NC(=O)[C@H](Cc4c[nH]cn4)NC3=O)C(=O)N[C@@H](CC(N)=O)C(=O)N[C@@H](CCSC)C(=O)N[C@@H](CC(N)=O)C(=O)N2)NC1=O | Lactococcus lactis subsp. cremoris |  | HP ATCC 11602 | 6 h, 30 °C | 0.625 µM |
| CC[C@H](C)[C@H](NC(=O)CNC(=O)[C@H](CCCCN)NC(=O)[C@H](C)NC(=O)[C@H](CCC(=O)O)NC(=O)[C@H](Cc1ccccc1)NC(=O)[C@H](CO)NC(=O)[C@H](CC(C)C)NC(=O)[C@@H](NC(=O)[C@H](CC(=O)O)NC(=O)[C@H](C)NC(=O)[C@@H](NC(=O)[C@@H](N)C(C)C)[C@@H](C)O)C(C)C)C(=O)N[C@@H](C)C(=O)N[C@H](C(=O)N[C@@H](CC(N)=O)C(=O)N[C@@H](Cc1c[nH]cn1)C(=O)N[C@@H](CO)C(=O)N[C@@H](C)C(=O)N[C@H]1CSSC[C@@H]2NC(=O)[C@H](C(C)C)NC(=O)CNC(=O)[C@H](CC(N)=O)NC(=O)[C@H](CCC(N)=O)NC(=O)[C@H](C)NC(=O)[C@H](CO)NC(=O)CNC(=O)CNC(=O)[C@H](CCCCN)NC(=O)[C@H](CCCCN)NC(=O)[C@H](CCCNC(=N)N)NC(=O)[C@H](CC(C)C)NC(=O)[C@H](C)NC(=O)[C@H]([C@@H](C)CC)NC(=O)[C@H](CSSC[C@@H](C(=O)N[C@@H](CCCNC(=N)N)C(=O)N[C@@H](CC(N)=O)C(=O)O)NC(=O)[C@H](C(C)C)NC2=O)NC(=O)[C@H](Cc2c[nH]cn2)NC(=O)[C@H](CC(C)C)NC(=O)[C@H](C)NC1=O)C(C)C | Malassezia furfur | broth microdilution | KCTC 7744 | 32 °C, YM broth with 1% olive oil | 25 µM |
| c1ccc(CCNC2CCCc3c2[nH]c2ccc(C4CCCCC4)cc32)cc1 (stereo not shown) | Staphylococcus simulans | broth microdilution | 22, cation-adjusted Mueller-Hinton broth |  | 2 mg/L |
| CC(C)C[C@@H]1NC(=O)[C@H](C)NC(=O)[C@H](NC(=O)[C@@H](N)COC(=O)[C@@H](C)NC(=O)[C@@H](CC(C)C)NC(=O)[C@@H](N)Cc2ccccc2)[C@H](C(N)=O)OC(=O)[C@H](CC(C)C)NC1=O | Bacillus subtilis Bacillus subtilis |  | ATCC 6051 | tested as TFA salt | > 32 mg/L |
| CC[C@H](C)[C@H](NC(=O)[C@H](CC(C)C)NC(=O)[C@H](CC(=O)O)NC(=O)[C@H](CO)NC(=O)[C@H](CCCNC(=N)N)NC(=O)[C@@H](N)CO)C(=O)N[C@H](C(=O)N[C@@H](Cc1c[nH]cn1)C(=O)N[C@@H](CCC(N)=O)C(=O)N[C@@H](CCCNC(=N)N)C(=O)N[C@@H](CC(C)C)C(=O)N[C@@H](Cc1ccccc1)C(N)=O)C(C)C | Trichophyton rubrum | broth microdilution | ATCC 28189 |  | > 400 mg/L |
| C[N+]1=C2C(c3ccc([N+](=O)[O-])cc3)=[N+]([O-])c3ccccc3N2CCC1 | Peptostreptococcus anaerobius |  |  |  | 0.125 mg/L |
| CCCCCCCCCCCCCCCCCCCCCCSCC1OC(OC2C(N)CC(N)C(OC3OC(CN)C(O)CC3N)C2O)C(O)C(N)C1O (stereo not shown) | Listeria monocytogenes |  | ATCC 19115 |  | 18.8 mg/L |
| CN[C@@H]1[C@H](O)[C@H](NC)[C@H]2O[C@]3(O)[C@H](O[C@@H]2[C@H]1O)O[C@H](C)C[C@@]3(O)CNCc1ccc(F)cc1 | Listeria monocytogenes |  |  |  | 6.3 mg/L |
| COc1ccc(C2=[N+]([O-])c3ccccc3N3CC(C)(C)CN=C23)cc1 | Fusobacterium nucleatum | microbial growth | ATCC25586 |  | 0.25 mg/L |

A few entries again:
| Compound | organism | test | test system | setting | MIC |
| --- | --- | --- | --- | --- | --- |
| COc1ccc(C2=[N+]([O-])c3ccccc3N3CC(C)(C)CN=C23)cc1 | Fusobacterium nucleatum | microbial growth | ATCC25586 |  | 0.25 mg/L |
